Results of several laboratories.
Lines come from different studies, so protocols differ. pIC50: −log10 of the molar value. Converted amounts (≈) assume the structure as drawn.

Structure (SMILES)	organism	assay	system	setting	endpoint	value
Nc1n[nH]c(=O)[nH]1	heterotrophic aerobic bacteria	O2 uptake	activated return sludge		IC20	> 32000 µM
NC1=NC2(CCCCC2)N(c2ccc(OCc3cn(CCCCOc4ccc5ccc(=O)oc5c4)nn3)cc2)C(N)=N1	Mycobacterium bovis BCG		resistant, thyA W98R		MIC50	3.2 µM (≈ 1.83 µg/mL)
CC[C@H](C)[C@@H]1NC(=O)[C@@H](CC(C)C)NC(=O)[C@H](CCN)NC(=O)[C@@H](NC(=O)[C@@H](CO)NC(=O)[C@@H](NC(=O)[C@H](CCN)NC(=O)c2ccc(-c3ccccc3)cc2)[C@@H](C)O)CCNC(=O)[C@H](CC(C)C)NC(=O)[C@H](CCN)NC(=O)[C@H](CCN)NC1=O	Neisseria gonorrhoeae		49226		MIC	0.125 µg/mL
CC[C@H](C)[C@H](NC(=O)[C@H](C)NC(=O)[C@H](CCC(=O)O)NC(=O)[C@H](CCC(=O)O)NC(=O)[C@H](CC(C)C)NC(=O)[C@H](CCCCN)NC(=O)[C@H](CCCCN)NC(=O)[C@H](CCSC)NC(=O)[C@H](CCC(=O)O)NC(=O)[C@H](Cc1ccc(O)cc1)NC(=O)[C@H](CCC(=O)O)NC(=O)[C@H](CC(C)C)NC(=O)[C@H](CC(=O)O)NC(=O)[C@H](CC(C)C)NC(=O)[C@H](Cc1ccccc1)NC(=O)[C@H](Cc1ccccc1)NC(=O)[C@@H](NC(=O)[C@H](CC(N)=O)NC(=O)[C@@H](NC(=O)[C@H](CCC(N)=O)NC(=O)[C@H](CC(=O)O)NC(=O)[C@H](CC(C)C)NC(=O)[C@@H](N)CO)[C@@H](C)CC)C(C)C)C(=O)N[C@@H](CCCCN)C(=O)N[C@@H](CCCCN)C(=O)N[C@@H](CC(C)C)C(=O)N[C@@H](CCC(=O)O)C(=O)N[C@@H](CCC(=O)O)C(=O)N[C@H](C(=O)N[C@@H](Cc1ccc(O)cc1)C(=O)N[C@H](C(=O)N[C@@H](CC(=O)O)C(=O)N[C@@H](CC(C)C)C(=O)N[C@@H](CCCCN)C(=O)N[C@@H](CCC(=O)O)C(=O)N[C@@H](CC(C)C)C(=O)O)[C@@H](C)CC)[C@@H](C)O	HCoV-OC43	viral infection, inhibitor, immunostaining	HCT-8	2 days, dual mutations	pIC50	6.44
Cc1cc(=O)oc2cc(OCCCCn3cc(COc4ccc(N5C(N)=NC(N)=NC56CCCCC6)cc4)nn3)ccc12	Mycobacterium bovis		BCG Tac^r9.1, thyA S125P missense	TA-C-resistant thyA mutant	MIC50	3.2 µM (≈ 1.87 µg/mL)
Nc1nc(N)c2c(Cl)c(CNc3ccc(C(=O)O)cc3)ccc2n1	Mycobacterium tuberculosis	extracellular growth	H37Rv		MIC	~0.05 µM
COc1ccc(-c2ccc(C(C)n3ccnc3)cc2)cc1 (centres unmarked)	Mycobacterium bovis		BCG DSM 43990		Kd to MIC50 ratio	2 to 3
CC[C@H](C)[C@H](NC(=O)[C@H](C)NC(=O)[C@H](CCC(=O)O)NC(=O)[C@H](CCC(=O)O)NC(=O)[C@H](CC(C)C)NC(=O)[C@H](CCCCN)NC(=O)[C@H](CCCCN)NC(=O)[C@H](CCSC)NC(=O)[C@H](CCC(=O)O)NC(=O)[C@H](Cc1ccc(O)cc1)NC(=O)[C@H](CCC(=O)O)NC(=O)[C@H](CC(C)C)NC(=O)[C@H](CC(=O)O)NC(=O)[C@H](CC(C)C)NC(=O)[C@H](Cc1ccccc1)NC(=O)[C@H](Cc1ccc(O)cc1)NC(=O)[C@@H](NC(=O)[C@H](CC(N)=O)NC(=O)[C@@H](NC(=O)[C@H](CCC(N)=O)NC(=O)[C@H](CC(=O)O)NC(=O)[C@H](CC(C)C)NC(=O)[C@@H](N)CO)[C@@H](C)CC)C(C)C)C(=O)N[C@@H](CCCCN)C(=O)N[C@@H](CCCCN)C(=O)N[C@@H](CC(C)C)C(=O)N[C@@H](CCC(=O)O)C(=O)N[C@@H](CCC(=O)O)C(=O)N[C@@H](CO)C(=O)N[C@@H](Cc1ccc(O)cc1)C(=O)N[C@H](C(=O)N[C@@H](CC(=O)O)C(=O)N[C@@H](CC(C)C)C(=O)N[C@@H](CCCCN)C(=O)N[C@@H](CCC(=O)O)C(=O)N[C@@H](CC(C)C)C(=O)O)[C@@H](C)CC	HCoV-OC43	viral infection, inhibitor, immunostaining	HCT-8	2 days	pIC50	6.51
